Measured values from different studies.
Numbers after ± are the reported error. Values after ≈ are worked out from the molar mass of the structure shown.

Substance	target or system	test	system	conditions	how to read	quantity	result
O=C1Nc2ccc(Cl)cc2[C@@](C#CC2CC2)(C(F)(F)F)O1	HIV-1	viral replication, single-round infection	RT mutant V106A/F227L			EC50	4.9 ± 0.7 nM
CC[C@H](C)[C@H](NC(=O)[C@H](CCCCN)NC(=O)[C@H](CCCNC(=N)N)NC(=O)[C@H](CCCNC(=N)N)NC(=O)[C@H](CC(C)C)NC(=O)[C@H](CCCCN)NC(=O)[C@H](CCCCN)NC(=O)[C@H](Cc1ccccc1)NC(=O)[C@H](CC(C)C)NC(=O)CNC(=O)[C@H](CCCNC(=N)N)NC(=O)[C@@H](N)CCCNC(=N)N)C(=O)N[C@@H](CCCCN)C(=O)N[C@@H](CCCCN)C(=O)NCC(=O)N[C@@H](Cc1ccccc1)C(=O)N[C@@H](CCCCN)C(=O)N[C@@H](CCCCN)C(=O)N[C@H](C(=O)N[C@@H](Cc1ccccc1)C(=O)N[C@@H](CCCCN)C(=O)N[C@@H](CCCNC(=N)N)C(=O)N[C@@H](CC(C)C)C(=O)N1CCC[C@H]1C(=O)N1CCC[C@H]1C(=O)N[C@H](C(=O)NCC(=O)N[C@H](C(=O)NCC(=O)N[C@H](C(=O)N[C@@H](CO)C(=O)O)C(C)C)C(C)C)C(C)C)[C@@H](C)CC	Clostridium perfringens		ATCC 13124			MIC	5.15 µM (≈ 18.7 µg/mL)
CC(C)(C)OC(=O)N1CCN(C(=O)c2ccccc2Sc2ccc([N+](=O)[O-])cc2)CC1	HIV-1	viral replication, measured: RT activity	H9 expressing A3G, LAI, X4-tropic wild type	day 7		IC50	3900 nM
Cc1cc(/C=C/C#N)cc(C)c1Nc1nc(Nc2ccc(/C=C/C#N)cc2)ncc1N	HIV-1	viral replication, single-round infection	RT mutant E138K/M184V			EC50	6.8 ± 0.2 nM
C#C[C@]1(CO)O[C@@H](n2cnc3c(=O)[nH]c(N)nc32)C[C@@H]1O	HIV-1 M184V	MTT	MT4			IC50	4.4 ± 3.2 nM
N#CC(C#N)=NNc1cccc(Cl)c1	Escherichia coli	checkerboard	tetracycline-resistant	1 µM, added: tetracycline		FIC index	1
COc1ccccc1NC(=O)c1ccccc1Oc1ccc(N)cc1	HIV-1	viral replication, measured: RT activity	H9 expressing A3G, LAI, X4-tropic wild type	day 7		IC50	43200 nM
C#C[C@]1(CO)O[C@@H](n2ccc(N)nc2=O)C[C@@H]1O	HIV-1 M184V	MTT	MT4			IC50	15.5 ± 1.7 nM
Cc1cc(/C=C/C#N)cc(C)c1Nc1ccnc(Nc2ccc(C#N)cc2)n1	HIV-1	viral replication, single-round infection	RT mutant M184I			EC50	0.2 ± 0.08 nM
Nc1nc(NC2CC2)c2ncn([C@H]3C=C[C@@H](CO)C3)c2n1	HIV-1 T215F	MTT	MT4			IC50	1670 ± 72.4 nM
O=C(Nc1ccccc1O)c1ccccc1Sc1ccc([N+](=O)[O-])cc1	HIV-1	viral replication, measured: RT activity	H9 expressing A3G, LAI, X4-tropic wild type	day 7		IC50	25000 nM
Cc1cc(/C=C/C#N)cc(C)c1-n1cnc2cnc(Nc3ccc(/C=C/C#N)cc3)nc21	HIV-1	viral replication, single-round infection	RT mutant G190S			EC50	≤ 2.1 nM
CC[C@H](C)[C@H](N)C(=O)N[C@@H](Cc1c[nH]c2ccccc12)C(=O)N[C@@H](CC(C)C)C(=O)N[C@H](C(=O)N[C@@H](C)C(=O)N[C@@H](CC(C)C)C(=O)N[C@@H](CCCCN)C(=O)N[C@@H](Cc1ccccc1)C(=O)N[C@@H](CC(C)C)C(=O)NCC(=O)N[C@@H](CCCCN)C(=O)N[C@@H](Cc1c[nH]cn1)C(=O)N[C@@H](C)C(=O)N[C@@H](C)C(=O)N[C@@H](CCCCN)C(=O)N[C@@H](Cc1c[nH]cn1)C(=O)N[C@@H](CC(C)C)C(=O)N[C@@H](C)C(=O)N[C@@H](CCCCN)C(=O)N[C@@H](CCC(N)=O)C(=O)N[C@@H](CCC(N)=O)C(=O)N[C@@H](CC(C)C)C(=O)N[C@@H](CO)C(=O)N[C@@H](CCCCN)C(=O)N[C@@H](CC(C)C)C(=O)O)[C@@H](C)O	Staphylococcus aureus	broth microdilution	USA300 LAC	37 °C		MIC	3.1 µM (≈ 8.82 µg/mL)
O=C(Nc1ccc2c(c1)OCO2)c1ccccc1Sc1ccc([N+](=O)[O-])cc1	HIV-1	viral replication, measured: RT activity	H9 expressing A3G, LAI, X4-tropic wild type	day 7		IC50	50000 nM
NC(=O)c1nc(F)c[nH]c1=O	Japanese encephalitis virus	viral replication	BHK-21	72 h		EC50	80000 nM
Cc1cc(/C=C/C#N)cc(C)c1-n1cnc2cnc(Nc3ccc4cc(C#N)ccc4c3)nc21	HIV-1	viral replication, single-round infection	RT mutant K101E/M184I			EC50	> 7 nM
COC(CN1CCn2cc(C(=O)NCc3ccc(F)cc3F)c(=O)c(O)c2C1=O)OC	human immunodeficiency virus 1	single-round vector infection	integrase R263K			EC50	5.7 ± 0.9 nM
O=C(Cc1ccccc1F)Nc1ccccc1Sc1ccc([N+](=O)[O-])cc1	HIV-1	viral replication, measured: RT activity	H9 expressing A3G, LAI, X4-tropic wild type	day 7		IC50	29700 nM
Nc1nc(F)nc2c1ncn2[C@H]1C[C@H](O)[C@](CO)(CF)O1	HIV-1 T215F	MTT	MT4			IC50	275 ± 195 nM

Substance	target or system	test	system	conditions	how to read	quantity	result
Cc1cc(/C=C/C#N)cc(C)c1Nc1nc(Nc2ccc3cc(C#N)ccc3c2)ncc1N	HIV-1	viral replication, single-round infection	RT mutant Y181I			EC50	758 ± 57.2 nM
C[C@H]1O[C@@H](O[C@H]2[C@@H](O)C[C@H](O[C@H]3[C@@H](O)C[C@H](O[C@H]4CC[C@@]5(C)[C@H](CC[C@@H]6[C@@H]5CC[C@]5(C)[C@@H](C7=CC(=O)OC7)CC[C@]65O)C4)O[C@@H]3C)O[C@@H]2C)C[C@H](O)[C@@H]1O	human coronavirus OC43	virus-induced cell killing	MRC-5	screen		maximum inhibition	32.4%
CCCC(=O)OCSc1ccccc1C(=O)NCCC(N)=O	HIV-1	viral replication	human PBMC, subtype C 93MW959, CCR5-tropic clinical isolate			EC50	3080 ± 1220 nM
Cc1cn([C@H]2C[C@H](N=[N+]=[N-])[C@@H](CO)O2)c(=O)[nH]c1=O	HIV-1 K65R	MTT	MT4			IC50	13.5 ± 1 nM
TVYSHLLLV		AIM	peptide, CD8+ T cells from PBMC, human donors	HLA-A*02:01 restricted, unit not given	relative to: positive over tested donors	frequency of responding donors	33
CNc1nc(N)ncc1-c1cn([C@@H]2O[C@H](CO[P@@](=O)(N[C@@H](C)C(=O)OC(C)C)Oc3ccccc3)[C@@H](O)[C@@]2(C)F)cn1	herpes simplex virus 1			concentration not given		antiviral activity	inactive
Ro 31-8220	porcine epidemic diarrhea virus	viral infection		concentration not given		M protein level	decreased
C#C[C@]1(CO)O[C@@H](n2cnc3c(O)ncnc32)C[C@@H]1O	HIV-1 T215F	MTT	MT4			IC50	298 ± 96.3 nM
CNc1nc(N)ncc1-c1cn([C@@H]2O[C@H](CO)[C@@H](O)[C@@]2(C)F)cn1	human cytomegalovirus			concentration not given		antiviral activity	inactive
FLGIITTVAAFHQEC	human CD4 T cells	AIM	peptide			responding donors	9%
CNc1nc(N)nc2c1ncn2[C@H]1C[C@H](O)[C@](CO)(CF)O1	HIV-1 K65R	MTT	MT4			IC50	133 ± 7.2 nM
COc1ccccc1NC(=O)c1ccccc1OCc1ccc([N+](=O)[O-])cc1	HIV-1	viral replication, measured: RT activity	H9 expressing A3G, LAI, X4-tropic wild type	day 7		IC50	2800 nM
Cn1c(Cn2ccc(C(F)(F)F)c(Oc3cc(Cl)cc(C#N)c3)c2=O)n[nH]c1=O	HIV-1	viral replication, single-round infection	RT mutant K101E/M184V			EC50	0.2 ± 0.02 nM
Nc1nc(N)c2ncn([C@H]3C[C@H](O)[C@](CO)(CF)O3)c2n1	HIV-1 T215F	MTT	MT4			IC50	3.2 nM
Cc1cn([C@H]2C[C@H](N=[N+]=[N-])[C@@H](CO)O2)c(=O)[nH]c1=O	HIV-1	viral replication	human PBMC, subtype D 92UG001, dual-tropic clinical isolate			EC50	6.51 ± 1.27 nM
COc1ccccc1NC(=O)c1ccccc1OCc1ccc2c(c1)OCO2	HIV-1	viral replication, measured: RT activity	H9 expressing A3G, LAI, X4-tropic wild type	day 7		IC50	12900 nM
NC(=O)CCNC(=O)c1ccccc1S	HIV-1	viral replication	human PBMC, subtype C 98IN017, CXCR4-tropic clinical isolate			EC50	4420 ± 370 nM
COc1ccccc1NS(=O)(=O)c1ccccc1Sc1ccc([N+](=O)[O-])cc1	HIV-1	viral replication, measured: RT activity	H9 expressing A3G, LAI, X4-tropic wild type	day 7		IC50	5900 nM
